Results from different studies.
Lines come from different studies, so protocols differ. Numbers after ± are the reported error.
Target: Acetylcholinesterase (ACHE, Homo sapiens, UniProt P22303)
UniProt P22303, sequence (whole entry, looked up): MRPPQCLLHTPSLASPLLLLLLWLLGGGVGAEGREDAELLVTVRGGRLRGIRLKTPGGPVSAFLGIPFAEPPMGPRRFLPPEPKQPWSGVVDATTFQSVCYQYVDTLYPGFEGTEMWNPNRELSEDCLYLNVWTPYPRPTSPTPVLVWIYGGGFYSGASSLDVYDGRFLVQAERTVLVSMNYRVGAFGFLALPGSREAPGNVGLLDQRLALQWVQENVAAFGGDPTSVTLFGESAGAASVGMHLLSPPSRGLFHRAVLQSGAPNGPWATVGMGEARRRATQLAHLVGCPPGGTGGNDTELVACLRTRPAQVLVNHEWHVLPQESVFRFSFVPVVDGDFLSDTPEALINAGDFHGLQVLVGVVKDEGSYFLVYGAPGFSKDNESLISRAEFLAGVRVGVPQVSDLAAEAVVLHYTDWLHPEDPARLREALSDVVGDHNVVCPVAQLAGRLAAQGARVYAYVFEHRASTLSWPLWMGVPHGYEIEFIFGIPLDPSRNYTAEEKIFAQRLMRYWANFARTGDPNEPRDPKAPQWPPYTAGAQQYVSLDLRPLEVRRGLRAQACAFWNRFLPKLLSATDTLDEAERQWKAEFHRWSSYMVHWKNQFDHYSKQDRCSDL

| SMILES | assay | setting | IC50 |
| --- | --- | --- | --- |
| CCOP(=O)(OCC)SCSCC | enzyme activity, inhibitor |  | 1300 ± 100 nM |
| COc1ccccc1C1c2ccc(OCC(=O)c3ccc(Cl)cc3)cc2Oc2nc3c(c(N)c21)CCCC3 (stereo not shown) | enzyme activity, inhibitor |  | 758 nM |
| CC(C)c1cc2c(c(O)c1O)[C@@]13CCCC(C)(C)[C@@H]1[C@H](OC3=O)[C@H]2O | enzyme activity, inhibitor, colorimetric | together with: acetylthiocholine | 0.73 ± 0.01 nM |
| CC(=O)[C@H]1CC[C@H]2[C@@H]3CCC4=CC(=O)CC[C@]4(C)[C@H]3CC[C@]12C | enzyme activity, inhibitor |  | 12500 nM |
| CCOP(=O)(OCC)SC[S+]([O-])CC (stereo not shown) | enzyme activity, inhibitor |  | 500 ± 100 nM |
| CN1CC[C@@]2(C)c3cc(OC(=O)Nc4ccccc4)ccc3N(C)[C@@H]12 | enzyme activity, inhibitor |  | 18.6 ± 0.3 nM |
| Nc1c2c(nc3c1C(c1cccc(Br)c1)c1ccc(OS(=O)(=O)c4ccc(F)cc4)cc1O3)CCCC2 (stereo not shown) | enzyme activity, inhibitor |  | 3880 nM |
| COc1cc(Nc2ncc(F)c(Nc3ccc4c(n3)NC(=O)C(C)(C)O4)n2)cc(OC)c1OC |  |  | > 10000 nM |
| COc1ccc(S(=O)(=O)Oc2ccc3c(c2)Oc2nc4c(c(N)c2C3c2cccc(OC)c2)CCCC4)cc1 (stereo not shown) | enzyme activity, inhibitor |  | 302 nM |
| CCOP(=S)(OCC)SCS(=O)(=O)CC | enzyme activity, inhibitor |  | 700 ± 100 nM |

Some of these lines once more:
| SMILES | assay | setting | IC50 |
| --- | --- | --- | --- |
| CCOP(=O)(OCC)SC[S+]([O-])CC (stereo not shown) | enzyme activity, inhibitor |  | 500 ± 100 nM |
